Measured values of several laboratories.
A part holds a random share of what one study measured. Positions count from the first letter of the parent shown.

Block 1
Target: Sal-like protein 4, full length isoform B (SALL4, Homo sapiens, UniProt Q9UJQ4-2, residues 1-616)
Method: universal PBM
Form: double-stranded DNA, one strand shown
Medium: in vitro
Concentration: not given
Setting: 8-mer, flanks averaged, mean of replicates
Direction: higher = stronger binding
Oligonucleotide	E-score
AGGGATCC	-0.324
ACCACTGG	-0.0309
GCAACTAA	0.00066
AAATTCGT	0.244
TGAGTAAA	0.103
CTATACTC	0.0484
AACTTACC	0.04
AACCAAAA	0.132

Block 2
Target: ATF7, bZIP domain (human)
Method: DHFR protein complementation
Medium: yeast
Setting: single substitutions, most at no-binding floor
Reference: wild-type JUN-FOS pair
Direction: higher = stronger binding
Parent: JUN, bZIP domain (human); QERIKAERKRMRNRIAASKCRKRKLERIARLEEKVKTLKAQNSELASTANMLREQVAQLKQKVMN; partner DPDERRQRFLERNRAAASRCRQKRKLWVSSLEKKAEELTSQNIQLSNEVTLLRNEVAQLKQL
Substitution	binding fitness [natural log]
N42G	-1.4
T48P	-1.5
E54S	-1.1
R53K	-1.04
L52P	-1.51
L45Y	-1.34
A49E	-1.44
A49Q	-1.4

Block 3
Target: Ras GTPase-activating protein-binding protein 1, full length (G3BP1, Homo sapiens, UniProt Q13283)
UniProt Q13283, sequence (whole entry, looked up): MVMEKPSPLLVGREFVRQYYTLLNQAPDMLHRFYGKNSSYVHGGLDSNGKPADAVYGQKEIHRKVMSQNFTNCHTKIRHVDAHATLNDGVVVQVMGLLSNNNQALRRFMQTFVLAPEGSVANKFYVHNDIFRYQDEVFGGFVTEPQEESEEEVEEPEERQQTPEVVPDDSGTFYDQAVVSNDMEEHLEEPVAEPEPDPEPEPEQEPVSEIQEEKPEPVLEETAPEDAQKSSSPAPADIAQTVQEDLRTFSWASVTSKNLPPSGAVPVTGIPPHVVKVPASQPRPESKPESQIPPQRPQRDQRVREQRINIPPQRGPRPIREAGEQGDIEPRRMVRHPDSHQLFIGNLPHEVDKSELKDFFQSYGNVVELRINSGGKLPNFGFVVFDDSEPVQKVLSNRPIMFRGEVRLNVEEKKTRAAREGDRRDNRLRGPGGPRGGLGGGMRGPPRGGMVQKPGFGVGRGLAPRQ
Method: RNA Bind-n-Seq
Form: RNA
Medium: in vitro
Concentration: 200 nM
Setting: whole 134-nt RNA, ends assumed
With: 150 mM KCl
Reference: input library
Direction: higher = stronger binding
Oligonucleotide	log2 enrichment
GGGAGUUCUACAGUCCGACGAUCUUGUGGCUGAGAGACAGUUUGCAAAGGAACAACAUACAGAUGGGACACUAAAGGAAGUUGGAGAAGAUUAUCAAAUCGCAAUCCCAGAUUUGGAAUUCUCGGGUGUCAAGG	0.186
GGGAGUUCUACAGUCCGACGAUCCCUGUGCUACACAUCGUAUGUACCGAAUCGGAAAAAAGGGGAAAAAAGGGGAAAAAAGGGAAAGUAUUAUGUUACGCCGUUCGGAUCUGCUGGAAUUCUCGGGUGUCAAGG	-0.721
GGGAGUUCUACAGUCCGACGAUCCUCAAGUCCUGUGCUACACAUCGUAUGUACCGAAUCGGAGGAAAAAAAGGUGGAAAGUAUUAUGUUACGCCGUUCGGAUCUGCACUUCCAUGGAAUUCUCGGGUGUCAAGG	-0.388
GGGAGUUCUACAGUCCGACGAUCUAACUUUAGAGGAGGAUCUGAUGGAUAUGGCAGUGGACGUGGAUUUGGGGAUGGCUAUAAUGAGUAUGGAGGAGGACCUGGAGGUGGCAAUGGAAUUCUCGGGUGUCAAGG	0.484
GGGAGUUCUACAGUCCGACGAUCAGUCCUGUGCUACACAUCGUAUGUACCGAAUCGGGGAGGGGUUUUUUUGGGGAGGGGAAAGUAUUAUGUUACGCCGUUCGGAUCUGCACUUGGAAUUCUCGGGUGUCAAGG	0.738
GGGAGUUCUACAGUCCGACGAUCCUGUGCUACACAUCGUAUGUACCGAAUCGGGGCCCCCCGGGCCCCCCGGGGCCCCCCGGGGAAAGUAUUAUGUUACGCCGUUCGGAUCUGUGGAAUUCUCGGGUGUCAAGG	-1.09
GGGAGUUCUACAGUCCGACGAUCCAAGUCCUGUGCUACACAUCGUAUGUACCGAAUCGGAAAGGAAAGGGGAAAGGGGAAAGUAUUAUGUUACGCCGUUCGGAUCUGCACUUCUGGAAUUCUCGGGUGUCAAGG	-0.349
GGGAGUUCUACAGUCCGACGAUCUGGCCCUGGUGGCAUGCGGGGAGGAAGAGGUGGCCUCAUGGAUCGUGGUGGUCCCGGUGGAAUGUUCAGAGGUGGCCGAGGUGGAGACAGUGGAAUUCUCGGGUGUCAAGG	0.0624

Further values, each from its own experiment
Structure (SMILES)	cell line	setting	endpoint	value
COc1cc(NS(C)(=O)=O)ccc1Nc1c2ccccc2nc2ccccc12	A-375	100 µM, 36 h	viability	9.75%

Repeated from above (block 1):
Oligonucleotide	E-score
TGAGTAAA	0.103
CTATACTC	0.0484
ACCACTGG	-0.0309
